Experimental data gathered from unrelated publications.
Organism: Human immunodeficiency virus 1

SMILES = CC(C)CN(C[C@@H](O)[C@H](Cc1ccccc1)NC(=O)O[C@H]1CCOC1)S(=O)(=O)c1ccc(N)cc1; test = viral replication; test system = MT2, IIIB; conditions = 5 days; IC50 = 0.0503 µM
SMILES = Cc1nnc(C(=O)NC(C)(C)c2nc(C(=O)NCc3ccc(F)cc3)c(O)c(=O)n2C)o1; test = cell growth or viability, MTT; test system = TZM-bl; conditions = 48 h; IC50 = > 200 µM
SMILES = CN(C)CCCn1c(=O)c2cc(Br)c3c(=O)n(CCCN(C)C)c(=O)c4c5[nH]c6ccc(C(=O)O)cc6[nH]c5c(c1=O)c2c34; test = viral replication; test system = TZM-bl, NL43; conditions = 48 h; IC50 = 0.863 µM
SMILES = CNCC(NC(=O)c1ccc(-c2ccc3c(c2)OCO3)[nH]1)c1ncc(CO)s1 (stereo not drawn); test = viral replication, ELISA; test system = MT2; IC50 = 7.5 µM
SMILES = COC(=O)c1ccc(COc2ccccc2NC(=O)c2ccccc2OC)cc1; test = viral replication; test system = MT4; conditions = 7 days; IC50 = > 100 µM
SMILES = Cc1ccc(-c2cn(C)c3nc(Cl)ccc23)cc1; test = cell growth or viability, MTT; test system = TZM-bl; conditions = 48 h; IC50 = 25.3 µM
SMILES = O=C(O)c1cc(O)c(O)c(O)c1; test = viral replication, inhibitor; test system = TZM-bl, NL43; conditions = 48 h; IC50 = 6.24 µM
SMILES = C[N+](C)(C)CCCn1c(=O)c2ccc3c(=O)n(CCC[N+](C)(C)C)c(=O)c4c5[nH]c6ccccc6[nH]c5c(c1=O)c2c34; test = viral replication; test system = TZM-bl, NL43; conditions = 48 h; IC50 = > 5 µM
SMILES = NCC(NC(=O)c1ccc(-c2ccc3c(c2)OC(F)(F)O3)[nH]1)c1ncc(CO)s1 (stereo not drawn); test = viral replication, ELISA; test system = MT2; IC50 = 2.7 µM
SMILES = COc1ccccc1C(=O)Nc1ccccc1Oc1ccc([N+](=O)[O-])cc1; test = viral replication; test system = MT4; conditions = 7 days; IC50 = 26.3 µM
SMILES = Cn1cc(-c2ccccc2)c2ccc(-c3cc(C(F)(F)F)cc(C(F)(F)F)c3)nc21; test = cell growth or viability, MTT; test system = TZM-bl; conditions = 48 h; IC50 = > 200 µM
SMILES = COc1ccccc1NC(=O)c1ccccc1Oc1ccc2c(c1)OCO2; test = viral replication; test system = MT4; conditions = 7 days; IC50 = 102 µM
SMILES = Cn1cc(-c2ccccc2)c2ccc(-c3ccsc3)nc21; test = cell growth or viability, MTT; test system = TZM-bl; conditions = 48 h; IC50 = > 200 µM
SMILES = COc1ccccc1NC(=O)c1ccccc1OCc1ccc2c(c1)OCO2; test = viral replication; test system = MT4; conditions = 7 days; IC50 = 45.2 µM
SMILES = NCC(NC(=O)c1ccc(-c2ccc3c(c2)OCO3)[nH]1)c1ncc(CO)s1 (stereo not drawn); test = viral replication, ELISA; test system = MT2; IC50 = 4.5 µM
SMILES = COc1ccc(-c2ccc3c(-c4ccccc4)cn(C)c3n2)cc1; test = cell growth or viability, MTT; test system = TZM-bl; conditions = 48 h; IC50 = 50.5 µM
SMILES = COc1ccccc1NC(=O)c1ccccc1Sc1ccc([N+](=O)[O-])cc1; test = viral replication; test system = MT4; conditions = 7 days; IC50 = > 100 µM
SMILES = CN(C)CCCn1c(=O)c2ccc3c(=O)n(CCCN(C)C)c(=O)c4c5[nH]c6cc(C(=O)O)ccc6[nH]c5c(c1=O)c2c34; test = viral replication; test system = TZM-bl, NL43; conditions = 48 h; IC50 = 0.975 µM
SMILES = NCC(NC(=O)c1ccc(-c2ccc3nsnc3c2)[nH]1)c1ncc(CO)s1 (stereo not drawn); test = viral replication, ELISA; test system = MT2; IC50 = 4 µM
SMILES = COc1ccc(-c2ccc3c(-c4ccc(F)cc4F)cn(C)c3n2)cc1; test = cell growth or viability, MTT; test system = TZM-bl; conditions = 48 h; IC50 = 49.3 µM
SMILES = COc1ccccc1NC(=O)c1ccccc1OCc1ccc([N+](=O)[O-])cc1; test = viral replication; test system = MT4; conditions = 7 days; IC50 = > 100 µM

A few entries again:
SMILES = COc1ccc(-c2ccc3c(-c4ccccc4)cn(C)c3n2)cc1; test = cell growth or viability, MTT; test system = TZM-bl; conditions = 48 h; IC50 = 50.5 µM
